Measurements pooled from the literature.
Compare with care: the assays were run in different laboratories. ± marks the error that the study gave.
Succinate dehydrogenase complex: Succinate dehydrogenase complex (Sus scrofa, UniProt A5GZW8+D0VWV4+Q007T0+Q0QF01)
Chain of UniProt Q0QF01 (whole entry, looked up): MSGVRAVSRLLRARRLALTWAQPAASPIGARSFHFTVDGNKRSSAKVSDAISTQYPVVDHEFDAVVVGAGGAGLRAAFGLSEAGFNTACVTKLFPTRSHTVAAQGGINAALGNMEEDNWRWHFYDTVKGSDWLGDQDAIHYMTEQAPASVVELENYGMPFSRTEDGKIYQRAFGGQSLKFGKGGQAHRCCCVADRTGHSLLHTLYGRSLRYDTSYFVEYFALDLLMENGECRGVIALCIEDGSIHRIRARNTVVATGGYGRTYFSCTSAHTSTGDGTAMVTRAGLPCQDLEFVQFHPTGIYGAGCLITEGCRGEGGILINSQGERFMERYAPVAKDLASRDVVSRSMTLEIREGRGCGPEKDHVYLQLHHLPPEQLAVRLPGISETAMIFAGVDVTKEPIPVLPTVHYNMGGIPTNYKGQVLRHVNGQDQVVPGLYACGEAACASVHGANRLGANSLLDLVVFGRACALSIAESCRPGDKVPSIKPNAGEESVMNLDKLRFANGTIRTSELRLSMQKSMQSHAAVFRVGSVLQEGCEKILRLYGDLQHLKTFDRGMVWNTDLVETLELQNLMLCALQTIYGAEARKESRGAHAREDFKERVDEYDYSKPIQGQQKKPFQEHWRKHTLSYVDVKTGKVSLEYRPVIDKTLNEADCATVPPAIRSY
Chain of UniProt Q007T0 (whole entry, looked up): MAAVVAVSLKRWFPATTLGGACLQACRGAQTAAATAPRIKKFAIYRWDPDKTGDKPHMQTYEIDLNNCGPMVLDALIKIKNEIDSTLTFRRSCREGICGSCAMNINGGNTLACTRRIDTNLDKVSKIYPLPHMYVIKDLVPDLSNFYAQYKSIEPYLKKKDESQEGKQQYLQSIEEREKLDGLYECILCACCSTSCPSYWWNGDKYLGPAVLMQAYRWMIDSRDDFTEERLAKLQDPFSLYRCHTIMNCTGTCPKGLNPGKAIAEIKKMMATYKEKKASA
Chain of UniProt D0VWV4 (whole entry, looked up): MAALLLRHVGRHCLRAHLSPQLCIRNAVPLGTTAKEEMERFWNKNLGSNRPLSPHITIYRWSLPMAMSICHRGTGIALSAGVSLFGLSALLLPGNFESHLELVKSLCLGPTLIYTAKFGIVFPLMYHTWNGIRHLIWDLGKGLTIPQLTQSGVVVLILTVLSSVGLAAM
Chain of UniProt A5GZW8 (whole entry, looked up): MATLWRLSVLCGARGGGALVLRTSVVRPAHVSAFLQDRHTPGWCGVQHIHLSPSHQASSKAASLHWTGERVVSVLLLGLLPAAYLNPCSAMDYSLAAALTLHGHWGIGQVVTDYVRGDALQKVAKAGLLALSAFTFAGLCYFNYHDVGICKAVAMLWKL
MTOR: Serine/threonine-protein kinase mTOR (MTOR, Homo sapiens, UniProt P42345)
AGER: Advanced glycosylation end product-specific receptor (AGER, Homo sapiens, UniProt Q15109)
Chain of UniProt Q15109 (whole entry, looked up): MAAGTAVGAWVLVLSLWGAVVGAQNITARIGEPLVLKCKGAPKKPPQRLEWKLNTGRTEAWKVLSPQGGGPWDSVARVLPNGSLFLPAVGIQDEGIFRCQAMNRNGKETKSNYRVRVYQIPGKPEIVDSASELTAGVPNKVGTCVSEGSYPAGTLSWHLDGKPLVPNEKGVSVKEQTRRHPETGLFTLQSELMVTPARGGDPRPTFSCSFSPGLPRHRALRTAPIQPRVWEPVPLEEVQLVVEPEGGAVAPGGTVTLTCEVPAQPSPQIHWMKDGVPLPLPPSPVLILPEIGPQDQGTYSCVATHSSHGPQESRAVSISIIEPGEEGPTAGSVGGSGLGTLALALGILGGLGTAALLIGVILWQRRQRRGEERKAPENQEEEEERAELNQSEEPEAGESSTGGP
GSTO1: Glutathione S-transferase omega-1 (GSTO1, Homo sapiens, UniProt P78417)
Chain of UniProt P78417 (whole entry, looked up): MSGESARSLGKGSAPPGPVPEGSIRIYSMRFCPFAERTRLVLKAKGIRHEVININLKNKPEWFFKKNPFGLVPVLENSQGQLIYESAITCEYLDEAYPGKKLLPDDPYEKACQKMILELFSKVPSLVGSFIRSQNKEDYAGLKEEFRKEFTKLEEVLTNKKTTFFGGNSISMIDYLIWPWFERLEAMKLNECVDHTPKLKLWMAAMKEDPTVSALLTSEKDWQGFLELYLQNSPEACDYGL
HTR2B: 5-hydroxytryptamine receptor 2B (HTR2B, Homo sapiens, UniProt P41595)
Chain of UniProt P41595 (whole entry, looked up): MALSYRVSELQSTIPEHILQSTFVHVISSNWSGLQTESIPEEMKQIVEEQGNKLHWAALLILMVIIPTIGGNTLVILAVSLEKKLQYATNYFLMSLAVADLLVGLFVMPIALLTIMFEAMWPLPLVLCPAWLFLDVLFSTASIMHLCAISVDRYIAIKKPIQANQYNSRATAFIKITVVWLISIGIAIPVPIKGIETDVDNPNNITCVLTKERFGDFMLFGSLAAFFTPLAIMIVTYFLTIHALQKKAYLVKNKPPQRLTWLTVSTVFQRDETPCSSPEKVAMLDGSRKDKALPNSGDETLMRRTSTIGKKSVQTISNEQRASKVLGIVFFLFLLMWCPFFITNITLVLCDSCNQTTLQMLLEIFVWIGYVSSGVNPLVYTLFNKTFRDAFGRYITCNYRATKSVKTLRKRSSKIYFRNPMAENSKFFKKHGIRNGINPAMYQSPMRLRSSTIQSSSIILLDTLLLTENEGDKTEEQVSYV
Chain of UniProt Q05097 (whole entry, looked up): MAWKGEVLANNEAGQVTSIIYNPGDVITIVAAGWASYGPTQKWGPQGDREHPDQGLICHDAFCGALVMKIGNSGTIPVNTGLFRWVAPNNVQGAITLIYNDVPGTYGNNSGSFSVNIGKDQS
Chain of UniProt Q14145 (whole entry, looked up): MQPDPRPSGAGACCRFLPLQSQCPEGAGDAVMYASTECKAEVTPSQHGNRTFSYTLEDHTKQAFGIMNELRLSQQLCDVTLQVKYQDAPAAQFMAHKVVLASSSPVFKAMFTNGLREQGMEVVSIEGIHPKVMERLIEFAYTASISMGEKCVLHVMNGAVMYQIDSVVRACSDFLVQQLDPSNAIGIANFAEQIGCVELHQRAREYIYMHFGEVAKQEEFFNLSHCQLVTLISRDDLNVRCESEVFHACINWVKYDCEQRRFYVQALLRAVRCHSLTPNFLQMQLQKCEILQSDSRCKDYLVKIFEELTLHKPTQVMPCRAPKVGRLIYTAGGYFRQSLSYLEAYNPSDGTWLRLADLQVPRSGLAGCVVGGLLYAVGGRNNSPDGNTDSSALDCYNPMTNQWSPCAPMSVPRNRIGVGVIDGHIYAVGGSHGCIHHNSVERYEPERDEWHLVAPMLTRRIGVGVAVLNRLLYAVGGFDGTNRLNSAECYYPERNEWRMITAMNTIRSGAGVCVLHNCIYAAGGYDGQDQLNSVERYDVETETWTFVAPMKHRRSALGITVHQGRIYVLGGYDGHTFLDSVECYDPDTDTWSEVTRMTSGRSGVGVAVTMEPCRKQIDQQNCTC
Chain of UniProt P19643 (whole entry, looked up): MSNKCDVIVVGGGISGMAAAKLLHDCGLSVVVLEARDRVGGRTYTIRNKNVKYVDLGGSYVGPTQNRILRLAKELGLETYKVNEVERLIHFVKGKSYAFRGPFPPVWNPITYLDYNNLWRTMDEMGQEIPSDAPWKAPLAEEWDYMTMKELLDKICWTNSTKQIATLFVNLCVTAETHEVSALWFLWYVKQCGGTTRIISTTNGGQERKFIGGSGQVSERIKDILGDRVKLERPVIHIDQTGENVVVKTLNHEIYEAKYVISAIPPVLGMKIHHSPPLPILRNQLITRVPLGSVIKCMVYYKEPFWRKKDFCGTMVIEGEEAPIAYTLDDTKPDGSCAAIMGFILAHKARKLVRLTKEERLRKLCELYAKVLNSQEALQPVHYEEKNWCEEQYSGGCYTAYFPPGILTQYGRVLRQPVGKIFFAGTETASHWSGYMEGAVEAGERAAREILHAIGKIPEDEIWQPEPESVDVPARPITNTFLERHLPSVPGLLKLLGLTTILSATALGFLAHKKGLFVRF
Chain of UniProt Q04760 (whole entry, looked up): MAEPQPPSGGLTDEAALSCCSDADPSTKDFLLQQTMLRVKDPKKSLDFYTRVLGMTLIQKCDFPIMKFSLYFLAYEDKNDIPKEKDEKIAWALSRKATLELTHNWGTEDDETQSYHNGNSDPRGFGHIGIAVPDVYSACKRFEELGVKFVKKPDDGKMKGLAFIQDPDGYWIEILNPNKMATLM
Chain of UniProt P29376 (whole entry, looked up): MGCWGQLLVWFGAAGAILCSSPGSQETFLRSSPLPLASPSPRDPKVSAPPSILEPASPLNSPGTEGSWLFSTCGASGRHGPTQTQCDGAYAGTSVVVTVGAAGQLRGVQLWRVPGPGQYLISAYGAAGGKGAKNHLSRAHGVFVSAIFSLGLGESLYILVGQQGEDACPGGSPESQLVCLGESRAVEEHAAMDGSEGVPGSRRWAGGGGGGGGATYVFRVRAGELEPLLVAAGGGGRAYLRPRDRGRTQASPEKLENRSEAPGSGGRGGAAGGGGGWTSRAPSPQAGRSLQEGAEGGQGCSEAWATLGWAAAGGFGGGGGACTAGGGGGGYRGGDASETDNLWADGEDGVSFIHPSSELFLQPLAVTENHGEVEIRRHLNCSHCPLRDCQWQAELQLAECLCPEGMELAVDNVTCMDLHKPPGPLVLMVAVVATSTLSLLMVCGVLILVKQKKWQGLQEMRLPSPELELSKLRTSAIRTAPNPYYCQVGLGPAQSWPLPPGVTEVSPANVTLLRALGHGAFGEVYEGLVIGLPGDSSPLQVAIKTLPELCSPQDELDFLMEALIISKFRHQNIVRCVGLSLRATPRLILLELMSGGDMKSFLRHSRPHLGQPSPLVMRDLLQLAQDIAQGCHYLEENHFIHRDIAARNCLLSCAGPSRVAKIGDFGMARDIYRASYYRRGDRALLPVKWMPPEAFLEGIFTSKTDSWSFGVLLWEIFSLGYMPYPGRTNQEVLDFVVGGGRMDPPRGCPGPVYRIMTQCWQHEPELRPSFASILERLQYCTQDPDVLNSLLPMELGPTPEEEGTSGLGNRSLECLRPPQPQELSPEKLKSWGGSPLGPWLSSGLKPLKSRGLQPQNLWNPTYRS

COc1ccc(S(=O)(=O)Nc2ccc(NS(=O)(=O)c3ccc(OC)cc3)c3ccccc23)cc1
inhibition (Kelch-like ECH-associated protein 1, Kelch domain (KEAP1, Homo sapiens, UniProt Q14145); Keap1-Nrf2 interaction, inhibitor, fluorescence polarisation; 50 µM): 97%

Nc1ccc(/N=N/c2ccc(S(N)(=O)=O)cc2)c2ccccc12
inhibition (GLO1 (Homo sapiens, UniProt Q04760); enzyme activity, inhibitor; 25 µM): 78.2%

O=C(Nc1ccccc1Nc1ccccc1)c1nccnc1Cl
inhibition (Succinate dehydrogenase complex; enzyme activity, double-antibody sandwich ELISA; 2 µM): 21.9%

N#Cc1c(N)nc(N)nc1OCC1CCCCC1
inhibition (MTOR; enzyme activity, inhibitor, TR-FRET; 20 µM): < 5%

O=C(Nc1ccc(OCCN2CCCC2)cc1)c1cc2ccc(Cl)cc2s1
inhibition (AGER; binding to AGE-BSA, competitive ELISA; 100 µM, 60 min): ≤ 89%

O=C(O[C@H]1Cc2c(O)cc(O)cc2O[C@@H]1c1ccc(O)cc1)c1cc(O)c(O)c(O)c1
inhibition (maltase, rat; enzyme activity, inhibitor; rat intestinal brush border vesicles; 10 µM): 91.8%

COc1cc(C(=O)NC2CCC(N3CCN(CC4CCC5(CCCC5)C4)CC3)CC2)c(F)cc1Nc1ncc2c(n1)N(C1CCCC1(F)F)CC(F)(F)C(=O)N2C (stereo not shown)
inhibition (LTK (Homo sapiens, UniProt P29376); cell-free assay, TR-FRET; 10 µM): 3.51%

O=C(c1ccc(O)c(O)c1)c1ccc(O)cc1O
inhibition (lecA (Pseudomonas aeruginosa, UniProt Q05097); ligand displacement, FP; 4 mM): 13%

NC(CNC(CNC(CC(=O)O)C(=O)O)C(=O)O)C(=O)O (stereo not shown)
inhibition (IMP-7 metallo-beta-lactamase; 0.5 mM, Zn-depleted buffer, extended incubation): ~70%

O=C(CCl)N(CCNC(=O)C(F)(F)F)c1ccccc1[N+](=O)[O-]
inhibition (GSTO1; probe labelling, gel-based competitive ABPP; MDA-MB-435 soluble proteome; 100 nM, with: SE-Rh probe): 5%

CCC(=O)N(C)c1ccc(Cl)c(Cl)c1
inhibition (HTR2B; ligand displacement, radioligand; 10 µM): 23%

Oc1ccc(CCC(O)CC(O)CCc2ccc(O)cc2)cc1 (stereo not shown)
inhibition (Maob (Rattus norvegicus, UniProt P19643); enzyme activity, inhibitor; 4 µg/mL): 12.3 ± 0.6%

COc1ccc(NC(=O)c2cc3ccc(Cl)cc3s2)c(OC)c1
inhibition (AGER; binding to AGE-BSA, competitive ELISA; 100 µM, 60 min): 99%

O=C(CCl)N(CCNC(=O)C(F)(F)F)c1ccc([N+](=O)[O-])cc1
inhibition (GSTO1; probe labelling, inhibitor, competitive ABPP; MDA-MB-435; 1 µM, 18 h, serum-containing medium): 25%

C#CCSc1nc(Sc2nnnn2-c2ccccc2)c2nnn(Cc3ccccc3Cl)c2n1
inhibition (Cyclin-dependent kinase 9, with cyclin T1 (CDK9, Homo sapiens, UniProt P50750); enzyme activity, inhibitor; 10 µM): < 15%

COc1ncccc1C(=O)Nc1ccccc1Nc1ccccc1
inhibition (Succinate dehydrogenase complex; enzyme activity, double-antibody sandwich ELISA; 0.5 µM): 22.3%

COC(=O)CCSc1nc2n(n1)C(c1cccc(OC)c1)C(C(=O)Nc1cncc(C)c1)=C(C)N2 (stereo not shown)
inhibition (MTOR; enzyme activity, inhibitor, TR-FRET; 10 µM): 98.2%

Brc1ccccc1-c1nnc(CSc2nnnn2-c2ccccc2)o1
inhibition (HTR2B; ligand displacement, radioligand; 10 µM): 67%

O=C(O)c1n[nH]cc1-c1nc2ccc3[nH]ncc3c2c2c1CCCC2
inhibition (FLT3 (Homo sapiens, UniProt P36888, ITD); enzyme activity, inhibitor, ADP detection; 0.1 µM): 6%

For quick reference, copied from above:
O=C(c1ccc(O)c(O)c1)c1ccc(O)cc1O
inhibition (lecA (Pseudomonas aeruginosa, UniProt Q05097); ligand displacement, FP; 4 mM): 13%
